Assay results collected from several papers.
Protocols differ between the studies behind these lines. “And” joins repeats or separate records; there may be more than shown. ± marks the error that the study gave.

With `C=CCn1c(=O)c2cnc(Nc3ccc(N4CCN(C)CC4)cc3)nc2n1-c1ccc2c(n1)[C@@](O)(CC)CC2` the pHH3-negative cells was 93.7% (Kuramochi; flow cytometry; concentration not given).
`COc1cc([C@@H]2c3cc4c(cc3[C@@H](O[C@@H]3O[C@@H]5CO[C@@H](C)O[C@H]5[C@H](O)[C@H]3O)[C@H]3COC(=O)[C@H]23)OCO4)cc(OC)c1O`: “G1 phase cells” 34.9 ± 5.28% (HepG2 spheroids; flow cytometry; 1.7 µM, 96 h).
Under “surface marker level”, `Nc1cccc2c1C(=O)N(C1CCC(=O)NC1=O)C2=O` (centres unmarked) is recorded as 215% (RPMI-8226; flow cytometry, measured: CD267; concentration not given; baseline: comparator compound alone).
`C=Cc1c2[n-]c(c1C)/C=c1\[n-]/c(c(C)c1C=C)=C\c1[n-]c(c(CCC(=O)O)c1C)/C=c1\[n-]c(c(C)c1CCC(=O)O)=C2.[Sn+4]` gave a fold change of 1.9 (SH-SY5Y; RNA-seq, measured: LDLR mRNA; 5 µM, 5 h; baseline: untreated cells).
The EC50 of `CCn1cc(-c2cc(Cn3ccnc3)cc3c2CCN([C@H](c2cc(OC)ccn2)C2CC2)C3=O)c(C(F)(F)F)n1` is reported as > 30 µM (NCI-H1437; cell growth, inhibitor; 120 h).
Under “log2 fold change”, `Cn1cc(-c2ccc(-c3cncc(Cl)c3N3CCC4(CCNC4=O)CC3)cc2)cn1` is recorded as 3.08 (COLO 205; gene expression, microarray, measured: G0S2 mRNA; concentration not given, 6 h; baseline: untreated cells).
`CC(C)NCC(O)c1ccc(O)c(O)c1` (centres unmarked) has a sarcomere length of 1.8 µm (mouse ventricular cardiomyocytes; dose not given, 0.015 s).
For `Cn1cc(-n2cnc3c(NCc4nc5cc(Cl)c(Cl)cc5[nH]4)nc(N4CCOCC4)nc32)cn1`, the mRNA level was 0.587 (MDA-MB-231; qRT-PCR, measured: ATM; 50 nM, 6 h, unit not given; baseline: untreated).
`CC(=O)c1cc2c(o1)C(=O)c1ccccc1C2=O` gave an inhibition of 92.4% (BT-16; cell viability, MTT; 10 µM, 72 h).
Under “YAP protein level”, `CC/C(=N\NC(=O)NCc1cccc(O)c1)c1ccc(O)c(C)c1O` is recorded as 0.88 ± 0.44 (SK-OV-3; Western blot; 3D culture in gellan gum; 10 µM, 1 h, unit not given; baseline: β-actin).
`CC(=O)c1nn(-c2ccc(Cl)cc2)/c(=N/N=C(\C)c2ccc(NC(=O)c3ccccc3)cc2)s1` gave a toxicity of 97% and 96.2% (HepG2; 0.625 µM).
`Cc1nn(-c2nc3ccc(Cl)c(Cl)c3[nH]2)c(O)c1C1OC(=O)c2ccccc21` (centres unmarked) has an inhibition of -5.9% and -10.5% and -2.08% and -0.253% and 6.11% and -4.27% (RAW-ISG; IFN luciferase reporter; 0.625 µM, together with: HT-DNA).
The inhibition of `O=C(O)C[C@H](O)C[C@H](O)/C=C/c1c(C2CC2)nc2ccccc2c1-c1ccc(F)cc1` is reported as 93.6% (BT-16; cell viability, MTT; 10 µM, 72 h).
With `CCn1cc(-c2cc(Cn3ccoc3=N)cc3c2CCN([C@@H](C)c2cc(OC)ccn2)C3=O)c(C(F)(F)F)n1` the EC50 was 6.77 µM (ZR-75-1; cell growth, inhibitor; 120 h).
`Cc1c(N(C)C)ccc2cc(C(=O)NS(=O)(=O)c3ccccc3-c3ccccc3)oc12`: cell proliferation “no inhibition” (ZR-75-1; concentration not given).
`N#Cc1ccc2nc(Nc3ccc(N4CCOCC4)c(Cl)c3)[nH]c2c1` gave a median TGI of 17.8 µM (NCI-60 cancer cell panel; cell growth).
With `CC(C)C[C@H](NC(=O)[C@@H](NC(=O)c1cccc(-c2ccccc2)n1)[C@@H](C)O)B(O)O` the inhibition was 94.2% (BT-16; cell viability, MTT; 10 µM, 72 h).
For `CCN1CCN(c2cc(N3CCN(CC)CC3)nc(NCCNc3ccnc4cc(Cl)ccc34)n2)CC1`, autophagy flux read “inhibited” (N27 rat dopaminergic cells; dose not given, 36 h).
`COc1cc(-c2nnc3n2CCC3)ccc1Nc1ncc2cc(C)nc(NCC(C)(C)C)c2n1` gave a GI50 of 0.38 µM (CAL-51; cell growth; 72 h).
The inhibition of `c1ccc(CNc2nc(NCc3ccccc3)c3ccccc3n2)cc1` is reported as 91.3% (BT-16; cell viability, MTT; 10 µM, 72 h).

Excerpt of the above:
`C=Cc1c2[n-]c(c1C)/C=c1\[n-]/c(c(C)c1C=C)=C\c1[n-]c(c(CCC(=O)O)c1C)/C=c1\[n-]c(c(C)c1CCC(=O)O)=C2.[Sn+4]` gave a fold change of 1.9 (SH-SY5Y; RNA-seq, measured: LDLR mRNA; 5 µM, 5 h; baseline: untreated cells).
